Results of several laboratories.
Values joined by “and” are separate records of one study, mostly repeats; a detail may differ.
Target: Misshapen-like kinase 1 (MINK1, Homo sapiens, UniProt Q8N4C8)

SMILES	test	setting	how to read	endpoint	result
COCC12C(=O)NC3C4(C(OC)CC1O)C1CC5(O)C(OC)C(O)C(OC(C)=O)(C1C5OC(=O)c1ccccc1)C3(O)C(OC)C24 (centres unmarked)	kinase activity, inhibitor, ProQinase kinase profiling	25 µM	baseline: control	remaining activity	90% and 111%
Cc1cccc(O[C@H]2CCC[C@@H](C(C)CNCc3ccncc3)C2)c1 (relative stereo)	enzyme activity, inhibitor	1 µM	–	inhibition	-9%
Nc1ncc2c(n1)-c1c([nH]c3ccc(C4=CCOCC4)cc13)CCC2	binding, competition with immobilised ligand	1 µM	–	remaining binding	81%
NC(=O)[C@@H](O)C[C@H]1CCc2sc3ncnc(O[C@H]4CC[C@H](N5CCOCC5)CC4)c3c21	enzyme activity, inhibitor	10 µM	–	inhibition	13%
COc1c(Cl)cccc1Nc1c(-c2ccncc2C#C[C@@]2(C)CCCN2C(=O)/C=C/CN(C)C)[nH]c2c1C(=O)NCC2	binding, competition with immobilised ligand	3 µM	–	remaining binding	12%
Cc1cnc2nc1Nc1cccc(c1)COC/C=C/COCc1cc(ccc1OCCN1CCOCC1)N2	binding, competition with immobilised ligand	0.1 µM	–	remaining binding	84%
C=CC(=O)Nc1cccc(-c2cnc3[nH]cc(C(=O)NC(C)(C)C)c3n2)c1	enzyme activity, inhibitor	0.1 µM	–	inhibition	29%
C=CC(=O)N1CCc2ccc(-n3c(=O)ccc4cnc5ccc(-c6cnn(C)c6)cc5c43)cc21	KINOMEscan	1 µM	baseline: DMSO control	remaining binding	63%
CN1CCN(Cc2ccc(-c3ccc(CO[C@H]4CCC[C@@H]4NC(=O)c4cc(-c5cnn(C)c5)cnc4N)cc3)cc2)CC1	enzyme activity, inhibitor	0.1 µM	–	inhibition	-7%
COc1cc(Nc2nccc(-c3cnn4nc(OC)ccc34)n2)cc(C(F)(F)F)c1	binding, competition with immobilised ligand	1 µM	–	remaining binding	89%
CNC(=O)C1CCN(c2cc(C)c(F)cc2NC(=O)c2ccc(-c3cc(O)ccc3C)c(C)c2)CC1	binding, competition with immobilised ligand	1 µM	–	remaining binding	81%
Nc1ncc(-c2cc(-c3cnn(CC(F)(F)F)c3)ncc2F)nc1C(=O)NC1CNCC(F)C1 (centres unmarked)	enzyme activity	1 µM	baseline: DMSO control	remaining activity	108%
CN1CC[C@@H](COc2cnc(C#N)cc2-c2ccn3nc(NC(=O)C4CC4)cc3c2)C1	enzyme activity, inhibitor	1 µM	–	inhibition	13%
O=C=[N][Ru-4]123([n]4c5ccc(O)cc5c5c6c(c7cc(F)c[n+]1c7c54)C(=O)NC6=O)[S+]1CC[S+]2CC[S+]3CC1 (centres unmarked)	enzyme activity	100 nM, human enzyme, together with: 10 µM ATP	baseline: untreated	remaining activity	77%

A few entries again:
SMILES	test	setting	how to read	endpoint	result
COCC12C(=O)NC3C4(C(OC)CC1O)C1CC5(O)C(OC)C(O)C(OC(C)=O)(C1C5OC(=O)c1ccccc1)C3(O)C(OC)C24 (centres unmarked)	kinase activity, inhibitor, ProQinase kinase profiling	25 µM	baseline: control	remaining activity	90% and 111%
Cc1cccc(O[C@H]2CCC[C@@H](C(C)CNCc3ccncc3)C2)c1 (relative stereo)	enzyme activity, inhibitor	1 µM	–	inhibition	-9%
